Assay results pooled from the literature.
Protocols differ between the studies behind these lines. “And” joins repeats or separate records; there may be more than shown. Numbers after ± are the reported error. In brackets after ≈: the same amount, converted by molar mass.

N=C(N)c1ccc(OCc2ccc(Br)cc2COc2ccc(C(=N)N)cc2)cc1 — MIC of compound in combination (Escherichia coli; checkerboard; mcr-3 polymyxin-resistant; concentration not given, added: rifampicin): 12.5 µg/mL
CCc1nc2[nH]c(=O)n(O)c(=O)c2s1 — growth inhibition (Brassica rapa; 750 g/ha, 21 days, pre-emergence, glasshouse pot): 2.4%
CCCCCCCCCC(=O)N[C@@H](Cc1c[nH]c2ccccc12)C(=O)N[C@H](CC(N)=O)C(=O)N[C@@H](CC(=O)O)C(=O)N[C@@H]1C(=O)NCC(=O)N[C@@H](CCCN)C(=O)N[C@@H](CC(=O)O)C(=O)N[C@H](C)C(=O)N[C@@H](CC(=O)O)C(=O)NCC(=O)N[C@H](CO)C(=O)N[C@@H]([C@H](C)CC(=O)O)C(=O)N[C@@H](CC(=O)c2ccccc2N)C(=O)O[C@@H]1C — MIC (Staphylococcus aureus; SH1000; added: cardiolipin, molar ratio 1): 1 µg/mL
O=c1[nH]c2nc(-c3cccnc3)sc2c(=O)n1O — root length inhibition (Brassica rapa; 10 mg/mL, 72 h): 5%
Cc1cc(OC(C)C)ccc1C(=O)C(C)(C)NC(=O)c1sccc1C — EC50 (Bipolaris oryzae; mycelial growth; PSA medium; 20 °C, suspension concentrate 400 g/L): 0.79 µg/mL
CC(C)[C@@H]1NC(=O)[C@@H](CCCCN)NC(=O)[C@H]([C@@H](C)O)NC(=O)[C@@H](CCCN)NC(=O)[C@H](Cc2ccccc2)NC(=O)[C@@H](Cc2ccccc2)NC1=O — IC50 (Acanthamoeba castellanii; trophozoites): > 16 µg/mL
O=c1[nH]c2ncsc2c(=O)n1O — growth inhibition (Brassica rapa; 750 g/ha, 21 days, pre-emergence, glasshouse pot): 0%
Cc1cc(=O)c2c(o1)C[C@H](O)C[C@H]2O — inhibition (Zika virus; viral replication, CCK-8; Vero C1008; 10 µM, 96 h): 28.3 ± 3.96%
Cc1cc(C)c2sc(NC(=O)c3cc4ccccc4o3)nc2n1 — selectivity index (Zika virus; cytopathic effect; Vero 76, MR766; relative to: CC50 over EC50): > 5.3
O=c1[nH]c2nc(-c3ccncc3)sc2c(=O)n1O — root length inhibition (Brassica rapa; 100 mg/mL, 72 h): 73%
N=C(N)c1ccc(OCCC(CCOc2ccc(C(=N)N)cc2)c2ccccc2)cc1 (stereo not drawn) — FICI (Escherichia coli; checkerboard; BW25113; synergy at FICI ≤0.5, unit not given, added: novobiocin; lower = stronger synergy): ≤ 0.094
CC(C)n1ncc2c(C(=O)NCC3(C)CNC3)cc(C3CC3)nc21 — plaque area (Enterovirus D68; viral replication; RD, recombinant wild-type US/MO/14-18947; 0.003 µM; relative to: untreated): 97.4% and 110%
CO[C@H]1/C=C/O[C@@]2(C)Oc3c(C)c(O)c4c(c3C2=O)C2=NC3(CCN(CC(C)C)CC3)NC2=C(NC(=O)/C(C)=C\C=C\[C@H](C)[C@H](O)[C@@H](C)[C@@H](O)[C@@H](C)[C@H](OC(C)=O)[C@@H]1C)C4=O — IC90 (Mycobacteroides abscessus; bacterial growth; subsp. abscessus M9 clinical isolate): 5.47 µM
CCOc1ccc2cc(-c3nn(CC4CCN(C)CC4)c4ncnc(N)c34)ccc2c1 — parasite burden (Neospora caninum; qPCR; sheep foetuses or lambs, mid-pregnancy infection, foetal brain; concentration not given, treated infected group, negatives set to 0.01): 0.01 tachyzoites/mg tissue
Cc1nc2[nH]c(=O)n(O)c(=O)c2s1 — root length inhibition (Brassica rapa; 10 mg/mL, 72 h): 70%
CC(C)[C@@H]1NC(=O)[C@@H](CCCN)NC(=O)[C@H]([C@@H](C)O)NC(=O)[C@@H](CCCN)NC(=O)[C@H](Cc2ccccc2)NC(=O)[C@@H](Cc2ccccc2)NC1=O — IC50 (Acanthamoeba castellanii; trophozoites): > 16 µg/mL
CC1(C)S[C@@H]2[C@H](NC(=O)[C@H](N)c3ccccc3)C(=O)N2[C@H]1C(=O)O — MIC50 (Enterococcus faecalis; agar dilution; vancomycin-susceptible, 74 isolates): 128 µg/mL (≈ 366 µM)
COC(=O)[C@H](Cc1c[nH]c2ccccc12)NCc1cc2ccccc2nc1OC — growth (Pseudomonas aeruginosa; 2 µg/mL, added: pentamidine 50 µM; relative to: control): 100%
CCOC(=O)c1c(C)nc(NCCCNc2ccnc3cc(Cl)ccc23)nc1-c1ccccc1 — EC50 (reovirus 1; viral replication; Vero): > 20 µM
O=c1cccc(O)c(O)c1O — EC50 (hepatitis B virus; viral replication, refers to: plus-strand viral DNA; HepDES19): 36.6 ± 10.8 µM
CN[C@H](CC(C)C)C(=O)N[C@H]1C(=O)N[C@@H](CC(N)=O)C(=O)N[C@H]2C(=O)N[C@H]3C(=O)N[C@H](C(=O)N[C@H](C(=O)O)c4cc(O)cc(O)c4-c4cc3ccc4O)[C@H](O)c3ccc(c(Cl)c3)Oc3cc2cc(c3O[C@@H]2O[C@H](CO)[C@@H](O)[C@H](O)[C@H]2O[C@H]2C[C@](C)(N)[C@H](O)[C@H](C)O2)Oc2ccc(cc2Cl)[C@H]1O — MBC range (Enterococcus faecalis; ATCC 29212): > 32 µg/mL
O=C(Nc1cc(F)c(F)c(F)c1)c1ccc(F)c(S(=O)(=O)N2CCC(O)CC2)c1 — EC50 (hepatitis B virus; viral replication, qPCR, refers to: intracellular core DNA; HepAD38 cells; 6 days): 0.26 ± 0.08 µM
CCOC(=O)c1c(C)nc(NCCCNc2ccnc3cc(Cl)ccc23)nc1C — EC50 (reovirus 1; viral replication; Vero): > 100 µM
CN[C@H](CC(C)C)C(=O)N[C@H]1C(=O)N[C@@H](CC(N)=O)C(=O)N[C@H]2C(=O)N[C@H]3C(=O)N[C@H](C(=O)N[C@H](C(=O)O)c4cc(O)cc(O)c4-c4cc3ccc4O)[C@H](O)c3ccc(c(Cl)c3)Oc3cc2cc(c3O[C@@H]2O[C@H](CO)[C@@H](O)[C@H](O)[C@H]2O[C@H]2C[C@](C)(N)[C@H](O)[C@H](C)O2)Oc2ccc(cc2Cl)[C@H]1O — MIC50 (Enterococcus faecalis; intermediate susceptibility; 75% serum, 10 isolates): 4 µg/mL (≈ 2.76 µM)
O=c1[nH]c2nc(-c3ccccc3)sc2c(=O)n1O — root length inhibition (Brassica rapa; 10 mg/mL, 72 h): 69%
CC(=O)NC[C@H]1CN(c2ccc(N3CCOCC3)c(F)c2)C(=O)O1 — MIC50 (Enterococcus faecalis; vancomycin-intermediate, 10 isolates; serum 75%): 4 µg/mL (≈ 11.9 µM)
Cc1nc2c(=O)n(O)c(=O)[nH]c2s1 — root length inhibition (Brassica rapa; 100 mg/mL, 72 h): 83%
Nc1nc(-c2ccccc2)nc2[nH]nc(Nc3ccc(C(F)(F)F)cc3)c12 — clinical score (coxsackievirus B3; 31-1-93, NMRI mice, CVB3 chronic myocarditis; oral, 100 mg/kg twice daily, day 8, dosed days 0 to 6, score scale 0 to 7; direction not given): 0.1
CCCc1nc2[nH]c(=O)n(O)c(=O)c2s1 — root length inhibition (Brassica rapa; 10 mg/mL, 72 h): 62%
COc1ccc(C[C@H](NC(=O)[C@H](C)NC(=O)CN2CCOCC2)C(=O)N[C@@H](Cc2ccccc2)C(=O)C2(C)CO2)cc1 (stereo in doubt) — IC50 (Plasmodium falciparum; parasite growth; 3D7, chloroquine and artemisinin sensitive; 72 h, ring stage): 0.022 µM and < 0.03 µM

A few entries again:
O=c1[nH]c2nc(-c3ccncc3)sc2c(=O)n1O — root length inhibition (Brassica rapa; 100 mg/mL, 72 h): 73%
N=C(N)c1ccc(OCCC(CCOc2ccc(C(=N)N)cc2)c2ccccc2)cc1 (stereo not drawn) — FICI (Escherichia coli; checkerboard; BW25113; synergy at FICI ≤0.5, unit not given, added: novobiocin; lower = stronger synergy): ≤ 0.094
CC(C)n1ncc2c(C(=O)NCC3(C)CNC3)cc(C3CC3)nc21 — plaque area (Enterovirus D68; viral replication; RD, recombinant wild-type US/MO/14-18947; 0.003 µM; relative to: untreated): 97.4% and 110%
CO[C@H]1/C=C/O[C@@]2(C)Oc3c(C)c(O)c4c(c3C2=O)C2=NC3(CCN(CC(C)C)CC3)NC2=C(NC(=O)/C(C)=C\C=C\[C@H](C)[C@H](O)[C@@H](C)[C@@H](O)[C@@H](C)[C@H](OC(C)=O)[C@@H]1C)C4=O — IC90 (Mycobacteroides abscessus; bacterial growth; subsp. abscessus M9 clinical isolate): 5.47 µM
CCOc1ccc2cc(-c3nn(CC4CCN(C)CC4)c4ncnc(N)c34)ccc2c1 — parasite burden (Neospora caninum; qPCR; sheep foetuses or lambs, mid-pregnancy infection, foetal brain; concentration not given, treated infected group, negatives set to 0.01): 0.01 tachyzoites/mg tissue
